Assay results collected from several papers.
Lines come from different studies, so protocols differ. Values joined by “and” are separate records of one study, mostly repeats; a detail may differ. ± marks the error that the study gave.
Chain of UniProt Q9UIA9 (whole entry, looked up): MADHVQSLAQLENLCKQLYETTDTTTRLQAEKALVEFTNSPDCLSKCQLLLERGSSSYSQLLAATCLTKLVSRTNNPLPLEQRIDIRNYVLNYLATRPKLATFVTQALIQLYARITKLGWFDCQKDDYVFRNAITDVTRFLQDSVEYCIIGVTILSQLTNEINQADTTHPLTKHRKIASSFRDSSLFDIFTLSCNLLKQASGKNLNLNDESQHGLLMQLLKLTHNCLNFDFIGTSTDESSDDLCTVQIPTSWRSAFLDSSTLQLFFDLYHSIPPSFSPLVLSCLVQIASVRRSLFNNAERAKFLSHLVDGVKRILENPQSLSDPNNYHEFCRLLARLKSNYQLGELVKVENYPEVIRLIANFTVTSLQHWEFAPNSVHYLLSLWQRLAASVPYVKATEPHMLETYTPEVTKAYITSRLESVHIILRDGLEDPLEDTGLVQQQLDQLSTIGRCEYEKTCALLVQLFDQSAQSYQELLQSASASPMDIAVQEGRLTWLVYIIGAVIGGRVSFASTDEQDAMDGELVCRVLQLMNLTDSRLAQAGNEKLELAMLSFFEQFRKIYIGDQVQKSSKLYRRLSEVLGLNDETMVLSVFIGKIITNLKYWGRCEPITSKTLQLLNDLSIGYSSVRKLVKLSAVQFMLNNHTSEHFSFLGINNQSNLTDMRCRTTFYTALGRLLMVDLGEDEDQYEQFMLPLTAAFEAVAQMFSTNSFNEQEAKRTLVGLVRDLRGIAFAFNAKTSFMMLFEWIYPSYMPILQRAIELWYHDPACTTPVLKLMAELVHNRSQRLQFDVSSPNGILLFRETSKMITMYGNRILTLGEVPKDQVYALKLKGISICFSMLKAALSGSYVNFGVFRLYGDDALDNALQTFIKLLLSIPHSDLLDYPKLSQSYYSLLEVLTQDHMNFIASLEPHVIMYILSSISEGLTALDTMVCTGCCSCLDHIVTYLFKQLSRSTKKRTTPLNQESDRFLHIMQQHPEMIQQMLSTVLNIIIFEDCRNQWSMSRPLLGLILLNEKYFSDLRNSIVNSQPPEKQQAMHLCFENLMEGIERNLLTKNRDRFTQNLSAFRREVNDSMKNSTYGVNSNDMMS

`CO[C@H]1C[C@@H]2CC[C@@H](C)[C@@](O)(O2)C(=O)C(=O)N2CCCC[C@H]2C(=O)O[C@H]([C@H](C)C[C@@H]2CC[C@@H](OC(=O)NCCOCCOCCOCCOCCOCCOCCOCCOCCC(=O)N3CCc4cc(Cn5nc(-c6ccc7oc(N)nc7c6)c6c(N)ncnc65)ccc4C3)[C@H](OC)C2)C[C@@H](O)[C@H](C)/C=C(\C)[C@@H](O)[C@@H](OC)C(=O)[C@H](C)C[C@H](C)/C=C/C=C/C=C/1C` gave a mucositis incidence of 12.5% (patients with advanced solid tumours; intravenous, 10 mg weekly, grade 3 or higher).
For `O=c1ccc2ccccc2o1`, “point of departure” read 106 µM (HepG2; refers to: IL-8; 6 h).
For `C[C@H]1CN(c2n[nH]c3nc(N[C@H]4CC[C@H](NS(=O)(=O)CCC(F)(F)F)CC4)ncc23)CCO1`, the remaining binding was 1.1 (Exportin-7 (Homo sapiens, UniProt Q9UIA9); Kinobeads competition, refers to: XPO7; 0.032 µM, unit not given; reference: vehicle).
`O=S(=O)(c1ccc(O)cc1)c1ccc(O)cc1` has a necrotic cells of 36.8 ± 11.5% (HepG2 spheroids; annexin V-FITC/PI flow cytometry; 10 µM, 96 h).
The viability of `Cn1c(C(=O)Nc2ccc3c(c2)OCCO3)cc2c(=O)n3ccccc3nc21` is reported as 80.1% (Vero; MTT; 1.6 µM, 24 (unit not given)).
With `C[C@H](NC(=O)[C@H](CCCNC(=N)N)NC(=O)[C@H](Cc1c[nH]c2ccccc12)NC(=O)[C@H](CCCNC(=N)N)NC(=O)[C@H](Cc1c[nH]c2ccccc12)NC(=O)[C@H](Cc1c[nH]c2ccccc12)NC(=O)[C@H](Cc1c[nH]c2ccccc12)NC(=O)[C@H](CCCNC(=N)N)NC(=O)[C@H](Cc1c[nH]c2ccccc12)NC(=O)[C@H](CCCNC(=N)N)NC(=O)CN)C(N)=O` the LC50 was 285 µM (PK-15).
`COc1cc2c(Oc3ccc4[nH]c(C)cc4c3F)ccnc2cc1OCC1(N)CC1` — result for “incidence of adverse event”: 2.9% (refers to: grade 3 intestinal obstruction; paediatric high-risk refractory sarcoma; whole group).
The viability of `CC(C)C[C@H](NC(=O)[C@H](C)NC(=O)[C@@H](NC(=O)[C@H](CCCNC(=N)N)NC(=O)[C@H](CC(C)C)NC(=O)[C@H](Cc1c[nH]c2ccccc12)NC(=O)[C@@H]1CCCN1C(=O)[C@@H](N)CCCCN)C(C)C)C(=O)N[C@@H](CS)C(=O)N1CCC[C@H]1C(=O)NCC(=O)O` is reported as 106% and 109% (Vero; WST-1; 64 µM, 24 h).
For `Cc1cc(C(=O)NC(C)(C)COc2cccc3c2C(N)=NS(=O)(=O)N3)cc(C)n1`, the revertant ratio was 1 (Salmonella typhimurium; Ames test, confirmatory; TA1537; 100 µg/plate; reference: solvent control).
Under forward mutation, `COc1ccnc(C(=O)N[C@H]2COC(=O)[C@H](Cc3ccccc3)[C@@H](OC(=O)C(C)C)[C@H](C)OC2=O)c1OCOC(=O)C(C)C` is recorded as “negative” (mammalian cells; mammalian forward mutation; concentration not given).
Under “log2 fold change”, `CC[C@H](C)[C@@H]1NC(=O)[C@@H]2CCCN2C(=O)[C@H](CC(C)C)NC(=O)[C@H](CC(C)C)NC(=O)CNC(=O)[C@@H](NC(=O)[C@@H](NC(=O)[C@H](CC(=O)O)NC(=O)CNC(=O)[C@@H](NC(=O)[C@H](C)NC(=O)CNC(=O)[C@H](CCCCN)NC(=O)[C@H](CC(C)C)NC(=O)[C@H](CC(C)C)NC(=O)[C@H](CCCCN)NC(=O)CNC(=O)[C@@H](NC(=O)[C@@H](N)CC(C)C)C(C)C)C(C)C)C(C)C)CSSC[C@@H](C(=O)O)NC1=O` is recorded as -3.08 (RNA-seq, refers to: Bst1; mouse, traumatic brain injury model, frontal cortex and hippocampus; dose not given; reference: TBI alone).
With `Cc1cc(C(C)(C)c2ccc(O)c(C)c2)ccc1O` the necrotic cells was 36.5 ± 17.7% (HepG2 spheroids; annexin V-FITC/PI flow cytometry; 0.01 µM, 96 h).
`O=C(CC1NCCCC1O)Cn1cnc2cc(Br)c(Cl)cc2c1=O` (stereo not shown) has a CC50 of 0.5 µM (pigeon embryo fibroblasts).
For `CC[C@H](C)[C@H](NC(=O)[C@H](CC(C)C)NC(=O)[C@@H]1CCCN1C(=O)[C@@H]1CCCN1C(=O)[C@H](CCCCN)NC(=O)[C@H](CO)NC(=O)[C@@H](NC(=O)[C@@H](NC(=O)[C@H](CC(=O)O)NC(=O)[C@H](CC(C)C)NC(=O)[C@H](CCCCN)NC(=O)[C@H](Cc1ccc(O)cc1)NC(=O)[C@H](CCSC)NC(=O)[C@H](CCCCN)NC(=O)[C@@H](N)[C@@H](C)O)C(C)C)C(C)C)C(=O)N[C@@H](CC(N)=O)C(=O)NCC(=O)N[C@@H](CC(C)C)C(=O)N[C@@H](Cc1ccc(O)cc1)C(=O)N[C@H](C(=O)N[C@@H](CC(N)=O)C(=O)N[C@@H](CCCNC(=N)N)C(=O)N[C@H](C(=O)N[C@H](C(=O)N[C@H](C(=O)N[C@@H](CCCCN)C(=O)N[C@@H](C)C(=O)N[C@H](C(=O)N[C@@H](C)C(=O)N[C@H](C(=O)N[C@@H](CCCNC(=N)N)C(=O)N[C@@H](Cc1c[nH]cn1)C(=O)N[C@@H](CO)C(=O)N[C@@H](CCCCN)C(=O)N[C@@H](CCCCN)C(=O)N[C@@H](Cc1c[nH]cn1)C(=O)N[C@@H](Cc1ccccc1)C(=O)O)C(C)C)[C@@H](C)O)[C@@H](C)CC)C(C)C)[C@@H](C)O)[C@@H](C)O`, the CC50 was 55 µM (PMA-differentiated THP-1; cell viability, MTT; 24 h).
With `Oc1ccc(C(c2ccc(O)cc2)(C(F)(F)F)C(F)(F)F)cc1` the necrotic cells was 8.07 ± 6.39% (HepG2 spheroids; annexin V-FITC/PI flow cytometry; 0.1 µM, 24 h).
`Nc1nc(O)c2ncn(COC(CO)CO)c2n1`: “minimum cytotoxic concentration” greater than 100 µM (HeLa; cell morphology alteration).
